Results gathered from unrelated publications.
Parts stem from different laboratories: compare values within a part only.

Block 1
Organism: Saccharomyces cerevisiae
Observed: binding
Technique: yeast competitive growth sequencing
Form: peptide
Strain: cyclin D1-Cln2 strain
Matrix: peptide tiling library
Reading: direction not given
| Molecule | enrichment score |
| --- | --- |
| VLPGGVPSPGASLTSM | 0.829 |
| SPPRGRRLFPPGPAGF | 0.0631 |
| DKYDEGLYRFNSLNDL | 1.88 |
| NSMKELNFSHLPSNSV | 1.4 |
| KRCATPVIIDEILPSK | 1.78 |
| EPRNLLSLFEDTLDPT | 0.554 |
| YLYLLLTQSLWCRV | -1.81 |
| VKRLNFRSEEME | -2.01 |
| GTPKRCLDLSNLSSGE | -0.374 |
| DVSERGYVILPNDYFE | 1.75 |

Block 2
Target: Fragile X messenger ribonucleoprotein 1, C-terminal low-complexity region (Fmr1, Mus musculus, UniProt P35922)
Technique: RNA Bind-n-Seq
Form: RNA
Matrix: in vitro
Tested at: 200 nM
Notes: whole 134-nt RNA, ends assumed
Together with: 150 mM KCl
Baseline: input library
Reading: higher = stronger binding
| Sequence | log2 enrichment |
| --- | --- |
| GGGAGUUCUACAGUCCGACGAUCUCAAGUCCUGUGCUACACAUCGUAUGUACCGAAUCGGUGGUUUGGUUUUUUUGGAAAGUAUUAUGUUACGCCGUUCGGAUCUGCACUUCCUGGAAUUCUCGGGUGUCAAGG | -0.483 |
| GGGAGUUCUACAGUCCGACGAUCUCCUCAAGUCCUGUGCUACACAUCGUAUGUACCGAAUCGGAAAGGAGGAGGAAAGUAUUAUGUUACGCCGUUCGGAUCUGCACUUCCAGCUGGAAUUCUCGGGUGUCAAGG | -0.671 |
| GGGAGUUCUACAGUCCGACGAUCAAGUCCUGUGCUACACAUCGUAUGUACCGAAUCGGGGUUUUGGUUUUGGGUUUUGGAAAGUAUUAUGUUACGCCGUUCGGAUCUGCACUUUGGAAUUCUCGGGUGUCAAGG | -0.526 |
| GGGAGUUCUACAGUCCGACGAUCUGUGCUACACAUCGUAUGUACCGAAUCGGGUUUUUUUGGGGUUUUUUUGGGGUUUUUUUGGGAAAGUAUUAUGUUACGCCGUUCGGAUCUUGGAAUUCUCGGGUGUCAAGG | 0.107 |
| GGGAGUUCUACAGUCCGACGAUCUUUGCAGGGAGUGGUACGGGUAUCACUUUCCGGAGCUGGUGAAGAUCAUCAACGACAAUGCCACAUACUGCCGUCUUGCCCAGUUUAUUGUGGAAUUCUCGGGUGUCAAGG | -0.654 |
| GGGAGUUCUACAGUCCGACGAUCUGGGAGGUGGAUUUUGUUUAUUUUUUUAGCUCAUUUCCAGGGGUGGGAAUUUUUUUUUAAUAUGUGUCAUGAAUAAAGGUGUUUUUGAAAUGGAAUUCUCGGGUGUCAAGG | 0.218 |
| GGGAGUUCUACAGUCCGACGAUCAAGUCCUGUGCUACACAUCGUAUGUACCGAAUCAAACCCAAAUUUUUAAACCCAAAAAAGUAUUAUGUUACGCCGUUCGGAUCUGCACUUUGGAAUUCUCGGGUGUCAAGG | -0.302 |
| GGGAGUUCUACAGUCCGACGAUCGCAGGAAGUAAAAACAAAUGGAAAUGCUUCGGAUAGUGGCAGGGGUGGGGGUUGCUAAGGAAAGGGUGGGAUGGGAGUGGGUAAAGUGUUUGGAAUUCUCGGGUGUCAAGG | 0.211 |
| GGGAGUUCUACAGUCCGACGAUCUCCUGUGCUACACAUCGUAUGUACCGAAUCGGGGAAAAAAAGGGGAAAGGGGAAAGGGGAAAGUAUUAUGUUACGCCGUUCGGAUCUGCAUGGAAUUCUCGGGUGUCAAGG | 0.459 |
| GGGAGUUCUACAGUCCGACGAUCGUCCUGUGCUACACAUCGUAUGUACCGAAUCGGGCCCCCCGGCCCCCCGGCCCCCCGGAAAGUAUUAUGUUACGCCGUUCGGAUCUGCACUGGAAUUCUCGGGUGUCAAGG | 0.0264 |
| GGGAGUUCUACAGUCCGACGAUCACCAUGCAGGUGGGCAUCUUUGGGAACUGGGGCAAGGGGGGGAUAGGGAGGGGGGUAACACUUUGGGAACAGGUGGUCCCAGGUCGUUUCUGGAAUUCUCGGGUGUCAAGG | 0.847 |
| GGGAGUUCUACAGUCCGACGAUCCACAGACAACACGCACCCACACAGACACAGAGGGAAGGGGUUGGGAUGGGGACAGGGAAAACAGCAGGGCGGGGUAGGACCCCAGCCCCUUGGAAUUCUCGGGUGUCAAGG | 0.956 |
| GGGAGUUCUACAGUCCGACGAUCGCAGGAAGUAAAAACAAAUGGAAAUGCUUCGGAUAGUGGCAGGGGUGGGGGUUGCUAAGGAAAGGGUGGGAUGGGAGUGGGUAAAGAGGUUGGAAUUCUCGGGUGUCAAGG | 0.0872 |
| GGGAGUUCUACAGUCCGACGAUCGUGCUACACAUCGUAUGUACCGAAUCGGGGAAAAAAAGGGGUUUUUUUGGGGAAAAAAAGGGGAAAGUAUUAUGUUACGCCGUUCGGAUCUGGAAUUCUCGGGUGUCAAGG | 0.299 |

Block 3
Target: RNA binding protein fox-1 homolog 2, RRM domain, GST-SBP tag (RBFOX2, Homo sapiens, UniProt O43251-10, residues 100-194)
Technique: RNA Bind-n-Seq
Form: RNA
Matrix: in vitro
Tested at: 365 nM
Notes: natural RNA segment, single round, ends assumed
Baseline: no-protein control
Reading: higher = stronger binding
Construct (chain): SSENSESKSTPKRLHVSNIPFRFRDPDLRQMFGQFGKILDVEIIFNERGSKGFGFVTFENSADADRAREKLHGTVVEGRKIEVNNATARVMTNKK
| Sequence | RBNS enrichment (R) |
| --- | --- |
| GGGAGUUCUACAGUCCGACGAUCAAUGCCUCAGGAGUCCGGCAUAUACAACCAAAUUAUCAUGCUCAGGAUCUUCAGAAUUCUAAAGGCACAUGUUAGAAUGCAGAGUCCUGAUGACCUGUCAAUAAACUUUUUGGAAUUCUCGGGUGCCAA | 1.08 |
| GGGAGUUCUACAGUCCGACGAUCUAUUUUUGUACAAAUAAGGGACUGAUGUUCUGUUUCUUGUUAUUAGAAAUAAACAUUAAUAAAGCGUCUUGGUGUCCUGUCGUGUUUUUUUUUUAAUGCUUGCGCCGAUAUGGAAUUCUCGGGUGCCAA | 1.54 |
| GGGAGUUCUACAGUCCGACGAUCUGGCCUCAAUUCCGACCUGAGCCCCGGCCACUUUUAGGCCAUCCUCGGACUUGUCGCCCCUUCCCAGCCCCCUCAGCGUGAUCCUCAGGGUCCUUGGUCUCUUCAGGCCCUGGAAUUCUCGGGUGCCAA | 0.377 |
| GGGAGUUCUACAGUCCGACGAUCGGUAGCUAUCAGACAUGGACAGAAACUGACUUAGUGCUCACAAGCCCCUACACCUUCUGGGCUGAAGAUCACCCAGCUGUGUUCAGAAUUUUCUUACUGUGCUUAGGACUUGGAAUUCUCGGGUGCCAA | 0.339 |
| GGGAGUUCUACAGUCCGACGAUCAUUGUGUGUAACCUGCACAAUGUGGAAAGCUGAUGAACCUGUGCCUCCGUGCUGUCAGUGUGGUGUGCUUUCUGCAUGGUUAUAUACUACUAGUAACUUUAUCAAAUUUCUGGAAUUCUCGGGUGCCAA | 0.762 |
| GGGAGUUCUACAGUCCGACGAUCAUCUGCCUUACUUGCACCCACCAGGAUAAGGACAUAAACGGUGCUCAACUUUUCUGCCACCAGACUGUUAACUUUGCUAAAUGGCUCAAGAACAGUCAGUUAGCCCUGCUUGGAAUUCUCGGGUGCCAA | 0.302 |
| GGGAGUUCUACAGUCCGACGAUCAUAGCAAUAAAAUGUGAUUCUUGGGGUCUGCCCAGAGCUGCCCAUGGCUUUAUUUAUGAGUGUGGCUUUGAGGAGUUGGGAAGAGGUAACCCACUUCUCUCCCAUCUUCUUGGAAUUCUCGGGUGCCAA | 0.322 |
| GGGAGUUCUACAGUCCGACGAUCCAUUGGUCUCUGGAAUAAGUGCCAGCCUUUUUGCCAUAGUUGACUUGCUUCCAUAUUGGAGCUCCUCAGUAGGAACAGCUGUGGCACUGGGCUGGGGACCAGGAAGAAGUUGGAAUUCUCGGGUGCCAA | 0.991 |
| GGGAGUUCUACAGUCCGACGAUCCAACUCGUCCGACUCUUCUAUGAUGUUGAGCUCCCUGACAGCUGCCCUUUACCUCACAGUCUCCAUUGGACCUCAGCCAGGACCAGCCUCUGUCUGGUCCGAGAUGACCCUGGAAUUCUCGGGUGCCAA | 0.206 |
| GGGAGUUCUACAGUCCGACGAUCUCAGAUUGCAUGGGGGAUUUUUAACAUAUUUGAAACUCAGGGGGAACAUGAUUAAGAACACAAACUGGUAGCUACACAUGAAGGUUUACUUGAGCUUUUGUGAUUCAAAGUGGAAUUCUCGGGUGCCAA | 17.3 |
| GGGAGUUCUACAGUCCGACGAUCUAUCUUGAUGCCAGUUUGCCAAAUCUGAUACUGUGAAAAAAUUUGAUAGCUUUUCUAAUGUCUGACUAGUAAAUUUUAAAAUGUCAUUCUUUUACAAAUCAUAAUUAGUAUGGAAUUCUCGGGUGCCAA | 0.717 |
| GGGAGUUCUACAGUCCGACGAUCUUUUCACCACGCUCAGGCAAAUACUCUGCAGCUGUUAUUGGAUGGGCCAUUCCGAUCUGCCUUAUGAAAUUCCACAAGAAUGUUAGGGGCACCUAUGGGAUCUCUAGUGGUGGAAUUCUCGGGUGCCAA | 3.28 |

Block 4
Target: Interferon regulatory factor 7, full length, phosphomimetic (IRF7, Homo sapiens, UniProt Q92985, residues 1-503, S101K/S471D/S472D/S475D/S476D/S477D/S483D/S484D/S487D)
Technique: protein-binding microarray
Form: double-stranded DNA, one strand shown
Matrix: in vitro
Tested at: 250 nM
Notes: 60-bp whole probe
Together with: salmon DNA 0.4 mg/ml
Baseline: random background probes
Reading: higher = stronger binding
Shared flanks, not repeated: GCCTAGCAC … GTCTTGATTCGCTTGACGCTGCTG
Construct (chain): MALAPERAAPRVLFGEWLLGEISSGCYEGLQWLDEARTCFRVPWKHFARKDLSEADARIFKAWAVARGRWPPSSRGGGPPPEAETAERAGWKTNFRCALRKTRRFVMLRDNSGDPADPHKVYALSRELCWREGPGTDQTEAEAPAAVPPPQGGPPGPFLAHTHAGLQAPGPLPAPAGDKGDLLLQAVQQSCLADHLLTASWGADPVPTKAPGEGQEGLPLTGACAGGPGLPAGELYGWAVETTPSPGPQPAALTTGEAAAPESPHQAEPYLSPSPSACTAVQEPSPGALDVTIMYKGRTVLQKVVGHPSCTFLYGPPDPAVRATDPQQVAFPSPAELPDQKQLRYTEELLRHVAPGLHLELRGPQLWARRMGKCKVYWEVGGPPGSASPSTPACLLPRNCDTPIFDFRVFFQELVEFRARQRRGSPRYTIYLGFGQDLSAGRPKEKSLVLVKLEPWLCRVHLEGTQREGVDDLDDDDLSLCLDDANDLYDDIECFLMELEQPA
| Sequence | log fluorescence [z-score] |
| --- | --- |
| TTAGTACTGCTTTTCCTTTAGTGCTAG | 1.61 |
| GTCAAACTCACTCATGGCTTTGTGCTA | 0.498 |
| GGTCAGTCAGGTCACTTCTGGTGCTAG | -0.871 |
| TTAGAACTGAGTCTTGATTAGTGCTAG | -0.16 |
| TTCGGTATCGGTTTCGGTTAGTGCTAG | 10 |
| GAGGAACTGGGGTTTCGAGACGTGCTA | 2.33 |
| GACGAACTGGTGACTGGAGACGTGCTA | -0.594 |
| GACAAACTGAGTATCGAGACGTGCTAG | 0.111 |
| CTAGAACTGAGTCTCGATTAGTGCTAG | 1.27 |
| TTAGGACTAGACTTTCGGTTAGTGCTA | 1.28 |
| GACGATATCGGGTTTCGAGTCGTGCTA | 6.23 |
| GACGATATCAGACTGGAGAAGTGCTAG | -0.214 |
| CACGGTTTCGGGTTTCGGGACGTGCTA | 12.1 |
| TTAGATCTCAGACTGGAATAGTGCTAG | 0.26 |
| GACGGTTTCGACTCTGGGGACGTGCTA | 7.68 |
| GACGAACTGAGTATCCAGACGTGCTAG | -0.152 |
| GACGGTCTCTTTATCCTGACGTGCTAG | 0.531 |
| TTAGATATCGGGTTTCGATGAGTGCTA | 1.64 |
| CTTTTTTTTTTTTTCTGATCGTGCTAG | 1.8 |
| GACGGTATCCTACTGCGGACGTGCTAG | -0.309 |

Block 5
Target: Sal-like protein 4, full length isoform A (SALL4, Homo sapiens, UniProt Q9UJQ4, residues 1-1053)
Sequence of UniProt Q9UJQ4 (whole entry, looked up): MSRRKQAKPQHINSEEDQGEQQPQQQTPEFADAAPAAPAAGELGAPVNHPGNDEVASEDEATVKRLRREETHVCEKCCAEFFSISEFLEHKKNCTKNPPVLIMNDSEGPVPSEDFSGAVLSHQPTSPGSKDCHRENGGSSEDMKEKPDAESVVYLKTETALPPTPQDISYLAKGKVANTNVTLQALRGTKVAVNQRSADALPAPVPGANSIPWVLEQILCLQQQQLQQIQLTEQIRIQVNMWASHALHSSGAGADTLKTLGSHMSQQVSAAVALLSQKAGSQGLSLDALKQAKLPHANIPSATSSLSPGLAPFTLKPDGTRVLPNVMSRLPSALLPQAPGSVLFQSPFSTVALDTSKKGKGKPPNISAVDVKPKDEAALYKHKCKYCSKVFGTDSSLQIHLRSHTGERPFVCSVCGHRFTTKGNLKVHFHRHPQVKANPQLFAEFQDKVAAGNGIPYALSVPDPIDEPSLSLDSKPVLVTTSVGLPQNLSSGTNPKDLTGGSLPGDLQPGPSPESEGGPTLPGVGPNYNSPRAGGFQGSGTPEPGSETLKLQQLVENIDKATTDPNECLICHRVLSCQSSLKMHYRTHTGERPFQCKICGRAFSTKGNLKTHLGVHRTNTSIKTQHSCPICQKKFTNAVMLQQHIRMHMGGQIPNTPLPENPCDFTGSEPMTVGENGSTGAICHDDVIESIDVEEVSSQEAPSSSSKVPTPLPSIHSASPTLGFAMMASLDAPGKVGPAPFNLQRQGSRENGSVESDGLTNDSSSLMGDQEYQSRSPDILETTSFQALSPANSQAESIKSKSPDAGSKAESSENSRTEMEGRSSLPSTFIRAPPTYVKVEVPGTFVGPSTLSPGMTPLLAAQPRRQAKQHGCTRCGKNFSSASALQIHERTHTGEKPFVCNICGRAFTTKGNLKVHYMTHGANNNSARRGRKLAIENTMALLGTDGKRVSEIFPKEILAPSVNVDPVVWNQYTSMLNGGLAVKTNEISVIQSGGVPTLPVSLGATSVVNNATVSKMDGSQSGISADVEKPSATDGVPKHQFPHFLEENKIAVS
Technique: universal PBM
Form: double-stranded DNA, one strand shown
Matrix: in vitro
Tested at: 600 nM
Notes: 8-mer, flanks averaged, mean of replicates
Reading: higher = stronger binding
| Sequence | E-score |
| --- | --- |
| GCTAGAGC | -0.174 |
| CATCAGTC | -0.158 |
| CAGGCTCA | -0.183 |
| AAGGGATG | -0.0583 |
| TGGGAACA | -0.138 |
| AGTGACCC | -0.314 |
| CATCCTTA | -0.00457 |
| AAATGCAC | 0.0801 |
| CTTGGGTC | -0.173 |
| ATATAAGG | 0.235 |
| ACAAAGGG | -0.0703 |
| AACGAGTT | 0.0136 |
| AACTACCC | 0.0429 |
| CTGTGGTA | 0.0557 |
| CTCATGAG | -0.0329 |
| GATGGGGA | -0.237 |
| CCAGACGA | -0.224 |
| GAATTCGA | 0.0368 |
| ACTGAGCT | -0.193 |
| GAATATTC | 0.25 |
| TAGGAAAA | 0.231 |
| CTCCGCGA | -0.273 |
| AGTCTCAA | -0.00785 |
| CCTGCGGA | -0.207 |
| CTGTCTAA | -0.0232 |
